# Measurements from different studies.
# Target: Serine/threonine-protein kinase 17B (STK17B, Homo sapiens, UniProt O94768)
SMILES,test,system,conditions,how to read,measurement,value
Cc1ccc(C(=O)Nc2ccc(CN3CCN(C)CC3)c(C(F)(F)F)c2)cc1C#Cc1cnc2cccnn12,"target engagement, NanoBRET",human cells,,,Hill slope,0.938
COc1cc(Nc2nccc(-c3cnn4nc(OC)ccc34)n2)cc(C(F)(F)F)c1,"binding, competition with immobilised ligand",,1 µM,,remaining binding,100%
O=C(Cc1ccc(OCc2ccccc2)cc1)NC1(C(=O)O)CCN(C(=O)c2ccc(-c3cccc(Cl)c3)cc2)CC1,"enzyme activity, inhibitor",,10 µM,,activity vs control,137%
Cc1ccc(-c2c(/C=C(\C#N)C(=O)NC(C)C)n(CCCO)c3ncnc(N)c23)cc1,"cell-free assay, competition with immobilised ligand",,1 µM,,remaining binding,71%
Cc1cnc2nc1Nc1cccc(c1)COC/C=C/COCc1cc(ccc1OCCN1CCOCC1)N2,"binding, competition with immobilised ligand",,0.1 µM,,remaining binding,98%
C=CC(=O)N1CCCC(n2c(=O)c3ncccc3n(Cc3ccc(Oc4ccccc4)cc3)c2=O)C1 (stereo not shown),"cell-free assay, competition with immobilised ligand",,1 µM,,remaining binding,99%
CCn1cc(C(=O)O)c(=O)c2c(N)c(F)c(NC3CCCCC3)cc21,kinase activity,,"0.1 µM, added: ATP at Km",,inhibition,-1.2%
CNC(=O)C1CCN(c2cc(C)c(F)cc2NC(=O)c2ccc(-c3cc(O)ccc3C)c(C)c2)CC1,"binding, competition with immobilised ligand",,1 µM,,remaining binding,100%
Nc1ncc2c(n1)-c1c([nH]c3ccc(C4=CCOCC4)cc13)CCC2,"binding, competition with immobilised ligand",,1 µM,,remaining binding,100%
CNC1C[S+]2CC[S+]3CC[S+](C1)[Ru-4]321([N]=C=S)[n]2c3ccc(OC)cc3c3c4c(c5cc(F)c[n+]1c5c32)C(=O)NC4=O (stereo not shown),KinomeScan,,0.1 µM,baseline: untreated,remaining binding,69%
CN1CC[C@@H](COc2cnc(C#N)cc2-c2ccn3nc(NC(=O)C4CC4)cc3c2)C1,"enzyme activity, inhibitor",,1 µM,,inhibition,34%
CN1CCN(Cc2ccc(-c3ccc(CO[C@H]4CCC[C@@H]4NC(=O)c4cc(-c5cnn(C)c5)cnc4N)cc3)cc2)CC1,"enzyme activity, inhibitor",,0.1 µM,,inhibition,14%
C=CC(=O)N1Cc2nc(-c3cc(-c4cc(Cl)cnc4Cl)c(F)cc3F)n(-c3ccncn3)c2C1,cell-free assay,,1 µM,,inhibition,-3.5%
COc1c(Cl)cccc1Nc1c(-c2ccncc2C#C[C@@]2(C)CCCN2C(=O)/C=C/CN(C)C)[nH]c2c1C(=O)NCC2,"cell-free assay, competition with immobilised ligand",,3 µM,,remaining binding,85%
CNC(=O)C[C@H](Cc1ccc(C#N)cc1)NC(=O)c1cc(-c2ccc(CN[C@H](C)c3ccc(C)cc3)o2)ccc1Cl,"enzyme activity, inhibitor",,1 µM,,activity vs control,96%
C=CC(=O)N1CCc2ccc(-n3c(=O)ccc4cnc5ccc(-c6cnn(C)c6)cc5c43)cc21,KINOMEscan,,1 µM,baseline: DMSO control,remaining binding,100%
COc1cc(Nc2nc(C)cc(-c3cnn4nc(OC)ccc34)n2)cc(C(F)(F)F)c1,inhibitor,,"1 µM, DRAK2",baseline: control,remaining activity,81%
CC(C)=CC1OC(C)(C)C2C=C3C(=O)C(Cl)=CC(O)C3C3C(O)C4OC4C(=O)C132 (stereo not shown),"cell-free assay, competition with immobilised ligand",,10 µM,,remaining binding,88%
CCN1CCN(Cc2ccc(C(=O)Nc3ccc(C)c(NCc4cnc5[nH]ccc5c4OC)c3)cc2C(F)(F)F)CC1,"binding, competition with immobilised ligand",,1 µM,,remaining binding,92%

# A few entries again:
SMILES,test,system,conditions,how to read,measurement,value
CNC1C[S+]2CC[S+]3CC[S+](C1)[Ru-4]321([N]=C=S)[n]2c3ccc(OC)cc3c3c4c(c5cc(F)c[n+]1c5c32)C(=O)NC4=O (stereo not shown),KinomeScan,,0.1 µM,baseline: untreated,remaining binding,69%
C=CC(=O)N1CCc2ccc(-n3c(=O)ccc4cnc5ccc(-c6cnn(C)c6)cc5c43)cc21,KINOMEscan,,1 µM,baseline: DMSO control,remaining binding,100%
CC(C)=CC1OC(C)(C)C2C=C3C(=O)C(Cl)=CC(O)C3C3C(O)C4OC4C(=O)C132 (stereo not shown),"cell-free assay, competition with immobilised ligand",,10 µM,,remaining binding,88%
